Measured values pooled from the literature.
Lines come from different studies, so protocols differ.
CDK5 with p25: Cyclin-dependent kinase 5, with p25 (CDK5, Homo sapiens, UniProt Q00535)
CDK5 with p35: Cyclin-dependent kinase 5, with p35 (CDK5, Homo sapiens, UniProt Q00535)

Cc1cccc(O[C@H]2CCC[C@@H](C(C)CNCc3ccncc3)C2)c1 (relative stereo)  inhibition (CDK5 with p25; enzyme activity, inhibitor; 10 µM): 0%
CN1CC[C@@H](COc2cnc(C#N)cc2-c2ccn3nc(NC(=O)C4CC4)cc3c2)C1  inhibition (CDK5 with p25; enzyme activity, inhibitor; 1 µM): -6%
C=CC(=O)Nc1cccc(-c2cnc3[nH]cc(C(=O)NC(C)(C)C)c3n2)c1  inhibition (CDK5 (Homo sapiens, UniProt Q00535); enzyme activity, inhibitor; 0.1 µM): 15%
CN1CCN(Cc2ccc(-c3ccc(CO[C@H]4CCC[C@@H]4NC(=O)c4cc(-c5cnn(C)c5)cnc4N)cc3)cc2)CC1  inhibition (CDK5 with p25; enzyme activity, inhibitor; 0.1 µM): -3%
NC(=O)[C@@H](O)C[C@H]1CCc2sc3ncnc(O[C@H]4CC[C@H](N5CCOCC5)CC4)c3c21  inhibition (CDK5 with p35; enzyme activity, inhibitor; 10 µM): 28%
COc1ccc(C(=O)/C=C/c2ccccc2-c2c[nH]c3ccc(C#N)cc23)c(O)c1  inhibition (CDK5 with p25; enzyme activity, inhibitor; 20 µM): 7%
C=CC(=O)N1Cc2nc(-c3cc(-c4cc(Cl)cnc4Cl)c(F)cc3F)n(-c3ccncn3)c2C1  inhibition (Cyclin-dependent kinase 5, inactive (CDK5, Homo sapiens, UniProt Q00535); kinome panel; 1 µM): -1.6%
COc1ccc(O)cc1-c1c[nH]c2ncc(-c3cncc(C(=O)N(C)C)c3)cc12  inhibition (CDK5 with p35; binding, competition with immobilised ligand; 0.2 µM): 4.48%
CCn1cc(C(=O)O)c(=O)c2c(N)c(F)c(NC3CCCCC3)cc21  inhibition (CDK5 with p25; kinase activity; 0.1 µM, with: ATP at Km): 20.8%
NC(=O)C[C@H]1CCc2sc3ncnc(O[C@H]4CC[C@H](N5CCOCC5)CC4)c3c21  inhibition (CDK5 with p25; enzyme activity, inhibitor; 10 µM): 15%

Repeated from above:
CN1CCN(Cc2ccc(-c3ccc(CO[C@H]4CCC[C@@H]4NC(=O)c4cc(-c5cnn(C)c5)cnc4N)cc3)cc2)CC1  inhibition (CDK5 with p25; enzyme activity, inhibitor; 0.1 µM): -3%
NC(=O)[C@@H](O)C[C@H]1CCc2sc3ncnc(O[C@H]4CC[C@H](N5CCOCC5)CC4)c3c21  inhibition (CDK5 with p35; enzyme activity, inhibitor; 10 µM): 28%
